Assay results of several laboratories.
A part holds a random share of what one study measured.
Chain of UniProt P42679 (whole entry, looked up): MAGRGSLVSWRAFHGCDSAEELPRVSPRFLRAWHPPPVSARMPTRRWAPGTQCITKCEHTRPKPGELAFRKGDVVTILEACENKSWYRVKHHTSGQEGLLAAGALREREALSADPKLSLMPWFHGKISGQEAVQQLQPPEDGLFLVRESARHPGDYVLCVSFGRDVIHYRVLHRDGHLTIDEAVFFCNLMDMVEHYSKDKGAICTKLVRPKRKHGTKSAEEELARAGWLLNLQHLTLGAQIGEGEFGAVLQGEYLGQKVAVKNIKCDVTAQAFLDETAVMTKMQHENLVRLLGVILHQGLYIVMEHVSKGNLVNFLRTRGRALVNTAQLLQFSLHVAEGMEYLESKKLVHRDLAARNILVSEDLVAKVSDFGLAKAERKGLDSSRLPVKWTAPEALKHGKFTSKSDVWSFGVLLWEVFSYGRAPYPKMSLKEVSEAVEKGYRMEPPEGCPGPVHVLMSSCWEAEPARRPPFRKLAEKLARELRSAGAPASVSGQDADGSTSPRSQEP
Chain of UniProt Q9H3N8 (whole entry, looked up): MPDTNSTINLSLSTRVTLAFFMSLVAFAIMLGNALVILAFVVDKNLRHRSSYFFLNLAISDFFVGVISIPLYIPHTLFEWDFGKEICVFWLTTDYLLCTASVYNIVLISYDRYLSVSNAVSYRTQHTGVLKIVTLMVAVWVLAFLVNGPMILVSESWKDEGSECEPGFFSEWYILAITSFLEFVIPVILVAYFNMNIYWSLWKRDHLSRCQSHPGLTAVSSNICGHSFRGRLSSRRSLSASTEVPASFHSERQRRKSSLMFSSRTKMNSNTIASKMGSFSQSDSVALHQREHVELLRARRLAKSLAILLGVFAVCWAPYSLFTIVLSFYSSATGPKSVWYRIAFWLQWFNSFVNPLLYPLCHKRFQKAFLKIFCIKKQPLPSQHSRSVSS
Chain of UniProt Q9UBE8 (whole entry, looked up): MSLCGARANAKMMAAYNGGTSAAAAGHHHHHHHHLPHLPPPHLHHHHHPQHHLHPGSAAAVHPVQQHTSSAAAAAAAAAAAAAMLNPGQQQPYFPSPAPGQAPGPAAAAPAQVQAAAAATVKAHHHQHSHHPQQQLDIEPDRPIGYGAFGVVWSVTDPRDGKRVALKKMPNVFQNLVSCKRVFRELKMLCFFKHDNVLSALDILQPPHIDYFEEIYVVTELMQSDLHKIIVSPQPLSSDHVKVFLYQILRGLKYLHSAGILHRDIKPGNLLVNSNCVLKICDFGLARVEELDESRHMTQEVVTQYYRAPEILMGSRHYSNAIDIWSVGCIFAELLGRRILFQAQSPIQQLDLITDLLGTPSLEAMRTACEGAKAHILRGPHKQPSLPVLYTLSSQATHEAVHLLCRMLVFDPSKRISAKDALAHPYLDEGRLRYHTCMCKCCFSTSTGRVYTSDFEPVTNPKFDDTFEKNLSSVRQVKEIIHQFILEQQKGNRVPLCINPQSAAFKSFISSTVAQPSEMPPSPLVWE
Chain of UniProt P21728 (whole entry, looked up): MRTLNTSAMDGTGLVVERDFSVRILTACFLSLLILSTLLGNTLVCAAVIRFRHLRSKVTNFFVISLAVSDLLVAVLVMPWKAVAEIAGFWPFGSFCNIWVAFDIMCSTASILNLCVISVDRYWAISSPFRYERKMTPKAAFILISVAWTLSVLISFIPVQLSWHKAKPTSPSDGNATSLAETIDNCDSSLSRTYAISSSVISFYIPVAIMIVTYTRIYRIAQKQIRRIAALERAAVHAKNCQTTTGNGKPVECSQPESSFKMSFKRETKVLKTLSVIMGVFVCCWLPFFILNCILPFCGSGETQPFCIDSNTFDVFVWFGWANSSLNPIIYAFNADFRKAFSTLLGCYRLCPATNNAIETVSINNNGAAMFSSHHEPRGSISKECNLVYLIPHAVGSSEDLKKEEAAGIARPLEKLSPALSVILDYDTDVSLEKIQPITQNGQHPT
Chain of UniProt Q00526 (whole entry, looked up): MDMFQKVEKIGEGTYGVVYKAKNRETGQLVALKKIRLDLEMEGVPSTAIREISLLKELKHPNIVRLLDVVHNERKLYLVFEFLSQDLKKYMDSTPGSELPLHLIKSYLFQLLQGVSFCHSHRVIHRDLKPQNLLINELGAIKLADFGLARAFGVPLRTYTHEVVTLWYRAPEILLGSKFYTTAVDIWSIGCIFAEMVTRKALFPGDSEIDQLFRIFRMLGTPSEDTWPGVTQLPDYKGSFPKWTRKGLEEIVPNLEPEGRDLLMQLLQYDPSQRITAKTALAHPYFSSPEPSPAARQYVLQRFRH
Chain of UniProt Q5VT25 (whole entry, looked up): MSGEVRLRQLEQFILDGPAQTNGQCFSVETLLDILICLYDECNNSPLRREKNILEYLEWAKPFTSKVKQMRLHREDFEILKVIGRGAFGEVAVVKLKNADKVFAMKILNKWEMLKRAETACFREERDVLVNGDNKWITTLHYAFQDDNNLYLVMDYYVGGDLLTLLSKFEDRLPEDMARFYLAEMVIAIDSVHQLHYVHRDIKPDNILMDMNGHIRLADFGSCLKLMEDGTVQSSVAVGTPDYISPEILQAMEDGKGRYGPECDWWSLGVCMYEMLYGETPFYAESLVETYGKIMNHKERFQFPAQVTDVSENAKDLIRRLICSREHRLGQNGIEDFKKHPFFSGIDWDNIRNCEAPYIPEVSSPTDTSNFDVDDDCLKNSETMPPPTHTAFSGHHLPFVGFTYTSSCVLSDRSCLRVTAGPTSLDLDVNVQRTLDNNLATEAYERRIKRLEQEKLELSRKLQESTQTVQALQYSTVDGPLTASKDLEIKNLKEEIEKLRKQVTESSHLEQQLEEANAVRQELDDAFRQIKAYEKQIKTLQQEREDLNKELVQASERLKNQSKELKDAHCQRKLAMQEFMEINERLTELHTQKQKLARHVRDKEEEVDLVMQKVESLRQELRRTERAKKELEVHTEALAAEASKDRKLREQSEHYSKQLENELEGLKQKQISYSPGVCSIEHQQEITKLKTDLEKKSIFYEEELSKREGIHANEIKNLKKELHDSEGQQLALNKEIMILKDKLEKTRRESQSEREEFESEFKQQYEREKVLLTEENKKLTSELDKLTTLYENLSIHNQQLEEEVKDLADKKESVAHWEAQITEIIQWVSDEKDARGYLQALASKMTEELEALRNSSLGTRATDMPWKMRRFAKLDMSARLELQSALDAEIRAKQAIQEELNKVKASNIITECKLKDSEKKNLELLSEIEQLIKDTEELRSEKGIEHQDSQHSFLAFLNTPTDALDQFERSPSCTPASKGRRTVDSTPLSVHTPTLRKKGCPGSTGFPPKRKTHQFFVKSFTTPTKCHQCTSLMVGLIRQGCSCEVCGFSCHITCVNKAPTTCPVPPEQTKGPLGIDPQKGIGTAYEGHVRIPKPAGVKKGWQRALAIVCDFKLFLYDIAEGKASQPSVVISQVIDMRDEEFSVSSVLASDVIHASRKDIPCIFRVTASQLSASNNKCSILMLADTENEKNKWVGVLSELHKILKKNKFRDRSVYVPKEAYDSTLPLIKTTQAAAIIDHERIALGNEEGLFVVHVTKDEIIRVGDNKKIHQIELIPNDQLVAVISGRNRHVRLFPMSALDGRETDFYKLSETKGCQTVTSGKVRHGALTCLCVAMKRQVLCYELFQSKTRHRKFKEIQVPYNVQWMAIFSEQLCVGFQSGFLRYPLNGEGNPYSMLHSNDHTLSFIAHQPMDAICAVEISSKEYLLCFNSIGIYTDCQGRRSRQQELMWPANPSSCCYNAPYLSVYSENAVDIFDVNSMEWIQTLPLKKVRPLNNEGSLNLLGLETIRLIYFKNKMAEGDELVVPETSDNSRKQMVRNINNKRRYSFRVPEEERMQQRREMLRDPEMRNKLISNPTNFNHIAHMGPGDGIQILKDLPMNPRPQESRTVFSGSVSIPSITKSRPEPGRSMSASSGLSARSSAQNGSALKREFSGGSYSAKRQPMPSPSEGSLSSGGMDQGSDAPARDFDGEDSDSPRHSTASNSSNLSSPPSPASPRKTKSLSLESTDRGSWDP
Chain of UniProt P08172 (whole entry, looked up): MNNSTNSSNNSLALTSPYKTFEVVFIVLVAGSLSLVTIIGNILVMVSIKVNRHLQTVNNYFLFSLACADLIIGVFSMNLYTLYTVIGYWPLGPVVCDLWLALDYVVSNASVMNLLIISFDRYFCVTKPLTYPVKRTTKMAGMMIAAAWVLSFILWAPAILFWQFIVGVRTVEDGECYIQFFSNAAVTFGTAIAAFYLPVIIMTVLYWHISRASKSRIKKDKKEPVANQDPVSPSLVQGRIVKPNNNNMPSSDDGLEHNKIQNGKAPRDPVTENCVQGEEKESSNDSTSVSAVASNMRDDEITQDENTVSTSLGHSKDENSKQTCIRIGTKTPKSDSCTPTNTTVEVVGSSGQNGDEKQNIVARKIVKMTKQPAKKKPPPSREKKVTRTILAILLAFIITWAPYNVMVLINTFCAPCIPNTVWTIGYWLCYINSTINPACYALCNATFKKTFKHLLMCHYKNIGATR
Chain of UniProt P31749 (whole entry, looked up): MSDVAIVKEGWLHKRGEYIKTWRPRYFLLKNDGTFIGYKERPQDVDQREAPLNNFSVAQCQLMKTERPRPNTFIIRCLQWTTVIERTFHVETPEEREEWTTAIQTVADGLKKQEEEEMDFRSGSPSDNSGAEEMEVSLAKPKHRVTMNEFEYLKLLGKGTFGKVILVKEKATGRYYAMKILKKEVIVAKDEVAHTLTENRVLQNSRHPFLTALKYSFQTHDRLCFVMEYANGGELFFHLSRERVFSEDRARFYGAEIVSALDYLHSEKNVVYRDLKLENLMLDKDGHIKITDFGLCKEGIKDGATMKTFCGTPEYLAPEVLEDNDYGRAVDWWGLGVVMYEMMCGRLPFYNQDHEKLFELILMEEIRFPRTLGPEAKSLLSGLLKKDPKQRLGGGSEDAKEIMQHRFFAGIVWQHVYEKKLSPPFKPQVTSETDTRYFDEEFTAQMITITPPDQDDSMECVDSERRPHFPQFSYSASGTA

Set 1 — effect on: enzyme activity; mode: inhibitor; concentration: 0.5 µM; baseline: control
SMILES: CCCNC(=O)Nc1ccc(Oc2ncnc3cc(OC)c(OC)cc23)cc1Cl
For PASK (Homo sapiens, UniProt Q96RG2): remaining activity read 87.7%.
For TAOK3 (Homo sapiens, UniProt Q9H2K8): remaining activity read 95.9%.
For ITK (Homo sapiens, UniProt Q08881): remaining activity read 96.9%.
For FLT4 (Homo sapiens, UniProt P35916): remaining activity read 38.5%.
For SRC (Homo sapiens, UniProt P12931): remaining activity read 98.6%.
The remaining activity was 100% (PRKX (Homo sapiens, UniProt P51817)).
The remaining activity was 93% (AKT1 (Homo sapiens, UniProt P31749)).
The remaining activity was 81.6% (LIM domain kinase 1 (LIMK1, Homo sapiens, UniProt P53667)).
For FYN (Homo sapiens, UniProt P06241): remaining activity read 92.7%.
FGR (Homo sapiens, UniProt P09769) — remaining activity: 70.2%.
The remaining activity was 95.3% (MARK3 (Homo sapiens, UniProt P27448)).
For STK25 (Homo sapiens, UniProt O00506): remaining activity read 92.6%.
It gave 77.8% for remaining activity (CDC42BPA (Homo sapiens, UniProt Q5VT25)).
The remaining activity was 90.7% (NLK (Homo sapiens, UniProt Q9UBE8)).
The remaining activity was 99.1% (PKN1 (Homo sapiens, UniProt Q16512)).
MATK (Homo sapiens, UniProt P42679) — remaining activity: 96.8%.
It gave 96.8% for remaining activity (HIPK1 (Homo sapiens, UniProt Q86Z02)).
It gave 101% for remaining activity (NEK11 (Homo sapiens, UniProt Q8NG66)).
For Insulin receptor (INSR, Homo sapiens, UniProt P06213): remaining activity read 92.4%.
FER (Homo sapiens, UniProt P16591) — remaining activity: 74.1%.
It gave 94% for remaining activity (Cyclin-dependent kinase 3, with cyclin E (CDK3, Homo sapiens, UniProt Q00526)).

Set 2 — cell line: HaCaT; concentration: 100 µM; time: 36 h
`COc1cc(C=O)ccc1O` gave a viability of 64.9%.
`Nc1ncnc2c1ncn2[C@@H]1O[C@H](COP(=O)(O)O)[C@@H](O)[C@H]1O` has a viability of 92.3%.
With `Cc1cc(C(C)(C)C)c(O)c(C)c1CC1=NCCN1` the viability was 47.8%.
`CC1(C)O[C@@H]2C[C@H]3[C@@H]4CCC5=CC(=O)C=C[C@]5(C)[C@@]4(F)[C@@H](O)C[C@]3(C)[C@]2(C(=O)CO)O1` has a viability of 92.3%.
The viability of `Nc1nc2c(c(=O)[nH]1)N(C=O)C(CNc1ccc(C(=O)N[C@@H](CCC(=O)O)C(=O)O)cc1)CN2` (some centres unmarked) is reported as 90.5%.
`CCCCOc1ccc(C(=O)CCN2CCCCC2)cc1` gave a viability of 26.9%.
`Cc1ccc(N(CC2=NCCN2)c2cccc(O)c2)cc1` has a viability of 73.5%.
The viability of `c1ccc2[nH]c(-c3cscn3)nc2c1` is reported as 54%.
`Oc1cc(O)c(Cl)cn1` gave a viability of 97.5%.
With `O=C(c1ccc(OCCN2CCCCC2)cc1)c1c(-c2ccc(O)cc2)sc2cc(O)ccc12` the viability was 7.06%.
For `COC(c1ccccc1)(c1ccccc1)[C@H](Oc1nc(C)cc(C)n1)C(=O)O`, the viability was 112%.
`CN(C/C=C/c1ccccc1)Cc1cccc2ccccc12` gave a viability of 43.9%.
`CCCc1cc(=O)[nH]c(=S)[nH]1` has a viability of 90.8%.

Set 3 — effect on: binding; technique: radioligand binding; concentration: 10 µM
SMILES: CCC(=O)N[C@@H]1CC[C@H](C(=O)N(C)c2ccc(-c3nc4ccccc4o3)cc2)C1
HRH1 (Homo sapiens, UniProt P35367) — inhibition: 18.6%.
For ADRA2C (Homo sapiens, UniProt P18825): inhibition read -2.55%.
It gave -9.11% for inhibition (HTR3A (Homo sapiens, UniProt P46098)).
ADRA1B (Homo sapiens, UniProt P35368) — inhibition: -6.47%.
It gave -11.5% for inhibition (HRH2 (Homo sapiens, UniProt P25021)).
For ADRA1D (Homo sapiens, UniProt P25100): inhibition read -19.6%.
The inhibition was 55.3% (HRH4 (Homo sapiens, UniProt Q9H3N8)).
ADRA2B (Homo sapiens, UniProt P18089) — inhibition: 7.05%.
HTR7 (Homo sapiens, UniProt P34969) — inhibition: -13.7%.
It gave 5.19% for inhibition (CHRM4 (Homo sapiens, UniProt P08173)).
The inhibition was 17.9% (CHRM2 (Homo sapiens, UniProt P08172)).
HTR5A (Homo sapiens, UniProt P47898) — inhibition: -3.5%.
For DRD1 (Homo sapiens, UniProt P21728): inhibition read -1.16%.
The inhibition was -2.82% (ADRB3 (Homo sapiens, UniProt P13945)).

Set 4
SMILES: COc1cc(C(=O)N2CCC(N3CCN(C)CC3)CC2)ccc1Nc1ncc2c(n1)N(C)c1ccccc1C(=O)N2C
It gave 0.8% for inhibition (human PBMC; probe labeling, inhibitor, KiNativ profiling, item: FYAVkVLQK; cell lysate; concentration not given, LYS1 site, with: ATP acyl-phosphate probe 1 µM).
LYN (human); probe labelling, KiNativ ATP probe; human PBMC lysate; concentration not given, LYS1 labelled site — inhibition: -1.2%.
The inhibition was -7.2% (NEK9 (mouse); probe labelling, KiNativ ATP probe; mouse brain lysate; 0.1 µM, LYS1 labelled site).
The inhibition was -8% (NEK9 human; KiNativ profiling; human PBMC lysate; concentration not given, ATP probe, activation loop site).
The inhibition was 17.2% (PDK1 (mouse); probe labelling, KiNativ ADP probe; mouse brain lysate; 0.1 µM, LYS1 labelled site).
For MAP3K2 and MAP3K3 (mouse); probe labelling, KiNativ, item: DIkGANILR peptide, LYS2 site; brain tissue lysate (mouse); 1 µM, with: ATP acyl-phosphate probe: inhibition read -7.5%.
The inhibition was -0.1% (PI4KB mouse; KiNativ profiling; mouse brain lysate; 1 µM, ATP site, with: ADP acyl phosphate probe).
The inhibition was 9.8% (FER human; KiNativ profiling; human PBMC; concentration not given, activation loop site, with: ATP acyl phosphate probe).
It gave 2% for inhibition (CSK (mouse); probe labelling, KiNativ ADP probe; mouse brain lysate; 0.1 µM, LYS1 labelled site).
The inhibition was 34.5% (RSK1 domain 2 (mouse); probe labelling, inhibitor, KiNativ ActivX ADP probe; mouse brain lysate; 1 µM, Lys1 site peptide).
For MAP/microtubule affinity-regulating kinase 3 (Mark3, Mus musculus, UniProt Q03141); KiNativ profiling; mouse brain lysate; 1 µM, LYS1 site, with: ATP acyl phosphate probe: inhibition read 11.5%.

For quick reference, copied from above (set 2):
The viability of `c1ccc2[nH]c(-c3cscn3)nc2c1` is reported as 54%.
`Oc1cc(O)c(Cl)cn1` gave a viability of 97.5%.
With `O=C(c1ccc(OCCN2CCCCC2)cc1)c1c(-c2ccc(O)cc2)sc2cc(O)ccc12` the viability was 7.06%.
For `COC(c1ccccc1)(c1ccccc1)[C@H](Oc1nc(C)cc(C)n1)C(=O)O`, the viability was 112%.
